Results of several laboratories.
Protocols differ between the studies behind these lines.
PRKCQ: Protein kinase C theta type (PRKCQ, Homo sapiens, UniProt Q04759)
Sequence of UniProt Q04759 (whole entry, looked up): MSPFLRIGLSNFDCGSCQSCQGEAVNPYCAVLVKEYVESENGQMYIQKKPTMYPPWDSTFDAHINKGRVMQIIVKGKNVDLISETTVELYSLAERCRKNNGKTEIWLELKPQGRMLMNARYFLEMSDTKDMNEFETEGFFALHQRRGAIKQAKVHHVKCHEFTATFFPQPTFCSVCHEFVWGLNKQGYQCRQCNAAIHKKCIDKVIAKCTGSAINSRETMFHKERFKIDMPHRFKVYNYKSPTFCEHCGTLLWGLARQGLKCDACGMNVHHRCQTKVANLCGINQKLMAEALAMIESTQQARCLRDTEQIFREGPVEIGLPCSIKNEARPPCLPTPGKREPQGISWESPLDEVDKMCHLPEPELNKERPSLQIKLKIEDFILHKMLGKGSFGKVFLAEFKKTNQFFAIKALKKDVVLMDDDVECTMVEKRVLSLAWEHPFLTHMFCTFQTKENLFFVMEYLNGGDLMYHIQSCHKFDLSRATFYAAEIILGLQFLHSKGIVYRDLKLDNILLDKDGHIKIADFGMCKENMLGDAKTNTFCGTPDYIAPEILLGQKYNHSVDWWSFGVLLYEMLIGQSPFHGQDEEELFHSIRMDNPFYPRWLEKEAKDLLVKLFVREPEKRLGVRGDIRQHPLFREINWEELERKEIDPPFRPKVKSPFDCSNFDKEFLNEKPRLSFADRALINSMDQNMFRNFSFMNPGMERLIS
SRC: Proto-oncogene tyrosine-protein kinase Src (SRC, Homo sapiens, UniProt P12931)
Sequence of UniProt Q6ZWH5 (whole entry, looked up): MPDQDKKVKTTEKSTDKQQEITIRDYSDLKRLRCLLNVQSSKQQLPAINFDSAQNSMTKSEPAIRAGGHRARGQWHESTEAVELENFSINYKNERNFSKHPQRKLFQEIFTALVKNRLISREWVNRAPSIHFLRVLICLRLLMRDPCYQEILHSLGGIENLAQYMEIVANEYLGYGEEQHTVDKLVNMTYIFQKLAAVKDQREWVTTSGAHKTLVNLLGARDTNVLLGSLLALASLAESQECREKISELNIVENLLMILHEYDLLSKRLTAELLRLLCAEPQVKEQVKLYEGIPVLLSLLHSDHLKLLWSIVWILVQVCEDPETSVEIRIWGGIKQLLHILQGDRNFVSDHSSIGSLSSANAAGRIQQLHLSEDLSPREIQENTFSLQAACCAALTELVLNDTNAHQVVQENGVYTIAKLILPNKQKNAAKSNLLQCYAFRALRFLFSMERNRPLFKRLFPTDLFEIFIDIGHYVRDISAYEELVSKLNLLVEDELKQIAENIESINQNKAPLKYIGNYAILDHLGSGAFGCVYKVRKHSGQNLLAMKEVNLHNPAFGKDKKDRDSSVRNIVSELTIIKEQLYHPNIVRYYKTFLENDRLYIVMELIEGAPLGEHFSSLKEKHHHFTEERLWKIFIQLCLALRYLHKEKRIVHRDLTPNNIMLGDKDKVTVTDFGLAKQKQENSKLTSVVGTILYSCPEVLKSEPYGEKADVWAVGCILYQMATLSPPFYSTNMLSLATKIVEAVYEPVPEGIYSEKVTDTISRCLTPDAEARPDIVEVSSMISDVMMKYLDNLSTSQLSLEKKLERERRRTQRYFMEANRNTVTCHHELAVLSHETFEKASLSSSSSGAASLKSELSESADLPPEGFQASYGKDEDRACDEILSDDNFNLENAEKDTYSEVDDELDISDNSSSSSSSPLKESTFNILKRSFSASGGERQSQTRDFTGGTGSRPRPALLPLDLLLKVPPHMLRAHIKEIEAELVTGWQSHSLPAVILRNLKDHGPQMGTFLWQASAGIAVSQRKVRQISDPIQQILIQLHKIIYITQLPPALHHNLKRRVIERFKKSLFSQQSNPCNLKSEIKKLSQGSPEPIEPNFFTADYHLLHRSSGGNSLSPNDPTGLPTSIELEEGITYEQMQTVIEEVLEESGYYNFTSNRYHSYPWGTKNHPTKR

Structure (SMILES)	target	observed	mode	method	concentration	endpoint	result
COc1cc(-c2cncc3c2CN(C)Cc2cc(N4CCNCC4)ccc2-3)cc(OC)c1OC	SRC (Homo sapiens, UniProt P12931, T341M)	enzyme activity	inhibitor		1 µM	remaining activity	96%
CCCCC(=O)Nc1ccc(-c2ccc3ncn(CCC)c(=O)c3c2)cn1	PRKCQ	binding		competition with immobilised ligand	0.5 µM	remaining binding	100%
C1=C/COCc2cc(ccc2OCCN2CCCC2)Nc2nccc(n2)-c2cccc(c2)COC/1	NEK10 (Homo sapiens, UniProt Q6ZWH5)	binding			0.1 µM	remaining binding	58%
CNc1ncc2c(/C=C/C(=O)N3CCC(OC)CC3)nn(Cc3cccc(C(F)(F)F)c3)c2n1	PRKCQ	enzyme activity	inhibitor	radiometric	1 µM	remaining activity	97%
[2H]c1c([2H])c([C@]2([2H])CCCN2C(=O)C(C)(C)Oc2ccc3cn[nH]c3c2)c([2H])c([2H])c1C([2H])([2H])[2H]	SRC	binding		competition with immobilised ligand	1 µM	remaining binding	93%
C=CC(=O)N1CCC(COCC(=O)N2CCN(c3nc(-c4cnc(N)nc4C(F)F)nc(N4CCOC[C@@H]4C)n3)CC2)CC1	PRKCQ	binding		competition with immobilised ligand	1 µM	remaining binding	99%
Cc1cc([C@@H](C)Nc2ccccc2C(=O)O)c2nc(N3CCC(F)(F)CC3)c(C#N)c(=O)n2c1	SRC	binding		competition with immobilised ligand	1 µM	remaining binding	97%
